Experimental data from different studies.
Each numbered part is a random draw from the data of one study; scales do not carry over between parts.
UniProt P54646, sequence (whole entry, looked up): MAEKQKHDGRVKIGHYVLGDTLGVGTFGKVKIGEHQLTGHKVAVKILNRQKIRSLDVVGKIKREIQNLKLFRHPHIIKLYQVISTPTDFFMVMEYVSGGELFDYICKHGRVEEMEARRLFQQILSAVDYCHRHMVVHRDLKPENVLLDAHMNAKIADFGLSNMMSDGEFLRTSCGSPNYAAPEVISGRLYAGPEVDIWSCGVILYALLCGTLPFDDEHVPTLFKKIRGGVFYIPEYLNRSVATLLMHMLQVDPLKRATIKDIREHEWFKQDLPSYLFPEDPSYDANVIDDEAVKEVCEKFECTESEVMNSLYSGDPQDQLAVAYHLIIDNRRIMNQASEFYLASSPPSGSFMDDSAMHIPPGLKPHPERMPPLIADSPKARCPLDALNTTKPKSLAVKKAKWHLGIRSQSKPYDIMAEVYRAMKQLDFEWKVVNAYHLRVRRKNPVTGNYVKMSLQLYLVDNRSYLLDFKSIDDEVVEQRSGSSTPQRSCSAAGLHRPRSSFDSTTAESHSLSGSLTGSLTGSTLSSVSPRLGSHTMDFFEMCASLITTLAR
UniProt Q00526, sequence (whole entry, looked up): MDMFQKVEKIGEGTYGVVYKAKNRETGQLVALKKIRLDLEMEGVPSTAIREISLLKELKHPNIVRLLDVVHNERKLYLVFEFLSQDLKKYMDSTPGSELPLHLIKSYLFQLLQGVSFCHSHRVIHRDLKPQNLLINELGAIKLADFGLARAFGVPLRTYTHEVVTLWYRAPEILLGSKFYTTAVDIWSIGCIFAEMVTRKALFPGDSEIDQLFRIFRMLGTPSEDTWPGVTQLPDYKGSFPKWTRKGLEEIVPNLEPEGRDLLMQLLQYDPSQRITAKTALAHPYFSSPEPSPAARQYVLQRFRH
UniProt P00519, sequence (whole entry, unmodified, looked up): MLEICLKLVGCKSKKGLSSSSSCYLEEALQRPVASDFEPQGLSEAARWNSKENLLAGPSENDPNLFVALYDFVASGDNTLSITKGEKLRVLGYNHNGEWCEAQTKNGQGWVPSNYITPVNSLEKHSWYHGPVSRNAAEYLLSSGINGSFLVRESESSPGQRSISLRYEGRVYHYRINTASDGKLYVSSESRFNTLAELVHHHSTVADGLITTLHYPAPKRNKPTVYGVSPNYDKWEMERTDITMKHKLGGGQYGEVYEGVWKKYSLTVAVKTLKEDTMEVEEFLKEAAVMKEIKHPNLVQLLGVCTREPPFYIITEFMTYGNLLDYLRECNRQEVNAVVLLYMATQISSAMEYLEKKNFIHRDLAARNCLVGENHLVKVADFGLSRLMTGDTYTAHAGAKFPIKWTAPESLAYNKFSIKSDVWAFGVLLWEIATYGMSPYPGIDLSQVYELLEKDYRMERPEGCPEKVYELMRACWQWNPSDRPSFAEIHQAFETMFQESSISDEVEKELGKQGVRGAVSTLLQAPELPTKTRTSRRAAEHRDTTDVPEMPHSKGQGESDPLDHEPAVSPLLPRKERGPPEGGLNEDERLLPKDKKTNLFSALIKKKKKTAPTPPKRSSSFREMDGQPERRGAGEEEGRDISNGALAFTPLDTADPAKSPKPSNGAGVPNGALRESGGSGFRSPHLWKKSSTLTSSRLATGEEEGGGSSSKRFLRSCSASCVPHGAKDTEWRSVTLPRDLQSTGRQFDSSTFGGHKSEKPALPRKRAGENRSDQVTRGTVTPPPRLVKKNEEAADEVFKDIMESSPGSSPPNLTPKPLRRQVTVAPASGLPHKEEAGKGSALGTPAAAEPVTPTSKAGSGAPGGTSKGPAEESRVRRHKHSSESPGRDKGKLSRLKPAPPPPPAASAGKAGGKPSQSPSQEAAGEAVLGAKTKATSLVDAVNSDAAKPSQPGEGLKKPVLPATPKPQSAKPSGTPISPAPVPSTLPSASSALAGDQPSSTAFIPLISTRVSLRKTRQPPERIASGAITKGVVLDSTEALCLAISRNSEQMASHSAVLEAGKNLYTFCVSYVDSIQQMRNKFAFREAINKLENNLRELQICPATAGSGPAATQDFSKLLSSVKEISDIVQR
UniProt Q9Y3S1, sequence (whole entry, looked up): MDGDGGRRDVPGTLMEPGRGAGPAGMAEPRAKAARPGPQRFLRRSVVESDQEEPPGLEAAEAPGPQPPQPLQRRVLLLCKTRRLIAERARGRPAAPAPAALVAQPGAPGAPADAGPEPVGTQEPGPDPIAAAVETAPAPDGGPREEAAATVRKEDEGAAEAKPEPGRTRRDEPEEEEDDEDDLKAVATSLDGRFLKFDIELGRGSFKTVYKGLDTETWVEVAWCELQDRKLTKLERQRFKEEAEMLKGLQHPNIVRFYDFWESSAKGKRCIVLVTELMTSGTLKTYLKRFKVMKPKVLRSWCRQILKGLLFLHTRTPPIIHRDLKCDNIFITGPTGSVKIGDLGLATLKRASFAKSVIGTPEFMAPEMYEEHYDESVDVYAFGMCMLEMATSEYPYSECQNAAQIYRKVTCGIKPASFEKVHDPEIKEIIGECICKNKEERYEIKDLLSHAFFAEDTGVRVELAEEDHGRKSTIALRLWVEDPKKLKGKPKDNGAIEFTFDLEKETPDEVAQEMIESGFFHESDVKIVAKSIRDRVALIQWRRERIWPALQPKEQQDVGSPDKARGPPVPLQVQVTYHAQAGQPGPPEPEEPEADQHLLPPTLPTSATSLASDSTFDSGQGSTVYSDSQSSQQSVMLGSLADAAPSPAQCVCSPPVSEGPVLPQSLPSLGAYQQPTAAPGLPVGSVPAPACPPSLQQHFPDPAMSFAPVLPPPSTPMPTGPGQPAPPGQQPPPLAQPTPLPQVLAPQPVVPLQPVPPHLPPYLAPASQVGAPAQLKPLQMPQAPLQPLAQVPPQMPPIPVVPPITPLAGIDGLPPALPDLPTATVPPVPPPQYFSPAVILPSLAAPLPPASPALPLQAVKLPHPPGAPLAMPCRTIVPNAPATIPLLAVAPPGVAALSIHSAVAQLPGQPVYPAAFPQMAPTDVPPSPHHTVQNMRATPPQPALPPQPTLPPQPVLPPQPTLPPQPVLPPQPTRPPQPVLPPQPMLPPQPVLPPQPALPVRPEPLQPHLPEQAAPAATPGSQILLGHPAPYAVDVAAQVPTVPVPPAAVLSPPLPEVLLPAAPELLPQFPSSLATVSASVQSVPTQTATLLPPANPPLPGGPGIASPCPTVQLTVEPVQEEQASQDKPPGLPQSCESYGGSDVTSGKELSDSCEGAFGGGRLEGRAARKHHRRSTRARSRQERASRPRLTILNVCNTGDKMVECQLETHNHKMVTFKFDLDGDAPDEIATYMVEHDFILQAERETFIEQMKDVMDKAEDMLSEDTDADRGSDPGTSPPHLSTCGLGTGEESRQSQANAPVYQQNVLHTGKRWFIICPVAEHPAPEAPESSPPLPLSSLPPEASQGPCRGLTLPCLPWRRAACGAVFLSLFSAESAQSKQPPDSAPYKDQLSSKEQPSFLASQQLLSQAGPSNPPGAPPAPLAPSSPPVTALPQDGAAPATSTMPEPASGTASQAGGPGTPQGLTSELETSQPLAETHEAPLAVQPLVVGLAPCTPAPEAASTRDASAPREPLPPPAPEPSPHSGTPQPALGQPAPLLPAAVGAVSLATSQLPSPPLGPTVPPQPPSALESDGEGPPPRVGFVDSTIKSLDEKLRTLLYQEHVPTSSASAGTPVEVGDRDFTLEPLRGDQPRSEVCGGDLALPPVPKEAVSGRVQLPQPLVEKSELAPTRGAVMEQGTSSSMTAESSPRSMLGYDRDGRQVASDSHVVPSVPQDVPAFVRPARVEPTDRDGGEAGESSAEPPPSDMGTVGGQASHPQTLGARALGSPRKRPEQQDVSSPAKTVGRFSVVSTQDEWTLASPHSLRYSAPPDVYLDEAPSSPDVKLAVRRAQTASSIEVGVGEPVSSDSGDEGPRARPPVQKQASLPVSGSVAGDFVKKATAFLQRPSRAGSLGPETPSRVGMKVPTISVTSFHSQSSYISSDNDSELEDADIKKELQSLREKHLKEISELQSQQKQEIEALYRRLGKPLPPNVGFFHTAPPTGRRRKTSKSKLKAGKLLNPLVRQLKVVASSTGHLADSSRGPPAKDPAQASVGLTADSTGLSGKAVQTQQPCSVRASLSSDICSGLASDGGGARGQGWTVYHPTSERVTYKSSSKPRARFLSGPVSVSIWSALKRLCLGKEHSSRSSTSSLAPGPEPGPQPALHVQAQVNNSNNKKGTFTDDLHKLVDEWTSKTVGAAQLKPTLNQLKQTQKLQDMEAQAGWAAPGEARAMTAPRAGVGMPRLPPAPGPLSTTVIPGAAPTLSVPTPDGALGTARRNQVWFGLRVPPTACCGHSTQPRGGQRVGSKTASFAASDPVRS
UniProt P35626, sequence (whole entry, looked up): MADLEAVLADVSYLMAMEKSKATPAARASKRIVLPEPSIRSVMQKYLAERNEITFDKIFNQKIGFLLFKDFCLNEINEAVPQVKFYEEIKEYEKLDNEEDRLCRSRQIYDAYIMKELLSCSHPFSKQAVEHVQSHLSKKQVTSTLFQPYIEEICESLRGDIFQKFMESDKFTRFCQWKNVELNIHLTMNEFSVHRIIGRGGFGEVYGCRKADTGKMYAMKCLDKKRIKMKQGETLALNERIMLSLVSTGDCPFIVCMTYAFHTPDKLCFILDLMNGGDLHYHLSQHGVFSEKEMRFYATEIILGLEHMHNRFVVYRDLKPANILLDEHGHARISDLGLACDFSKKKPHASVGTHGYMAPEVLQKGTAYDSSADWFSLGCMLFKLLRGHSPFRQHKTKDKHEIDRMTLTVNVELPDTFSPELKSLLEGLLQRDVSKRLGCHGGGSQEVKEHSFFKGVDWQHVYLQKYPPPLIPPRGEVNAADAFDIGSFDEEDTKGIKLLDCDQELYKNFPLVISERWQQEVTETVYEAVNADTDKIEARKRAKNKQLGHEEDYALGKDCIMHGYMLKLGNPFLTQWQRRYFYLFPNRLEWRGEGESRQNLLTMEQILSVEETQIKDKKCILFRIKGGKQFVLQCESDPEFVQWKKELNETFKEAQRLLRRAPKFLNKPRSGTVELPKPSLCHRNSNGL

Series 1 — cell line: HaCaT; concentration: 100 µM; time: 60 h
| Compound | viability [%] |
| --- | --- |
| CCOC(=O)Nc1ccc(NCc2ccc(F)cc2)nc1N | 118 |
| C[C@]12C=CC(=O)C=C1CC[C@@H]1[C@@H]2[C@@H](O)C[C@@]2(C)[C@H]1CC[C@]2(O)C(=O)CO | 146 |
| COC(=O)C1=CO[C@@H](O)[C@@H]2C(CO)=CC[C@H]12 | 107 |

Series 2 — cell line: mouse MPNST tumor cells; method: high-content nuclear imaging; refers to: cell number; concentration: 10 µM; time: 12 h; notes: mean of 2 replicates; baseline: plate mean; reading: higher = more cells
| Structure (SMILES) | nuclei count [z-score] |
| --- | --- |
| COc1cc(C(=O)N2CCC(N3CCN(C)CC3)CC2)ccc1Nc1ncc2c(n1)N(C)c1ccccc1C(=O)N2C | -3.26 |
| O=C(NC1CCOCC1)c1ccc(-c2cc(-c3c[nH]nc3-c3ccccn3)ccn2)cc1 | -2.12 |
| C[C@]12CC[C@H]3[C@@H](CCC4=CC(=O)CC[C@@]43C)[C@@H]1CC[C@@H]2C(=O)CO | 1.13 |

Series 3 — concentration: 0.1 µM
Structure (SMILES): COc1cc(C(=O)N2CCC(N3CCN(C)CC3)CC2)ccc1Nc1ncc2c(n1)N(C)c1ccccc1C(=O)N2C
| target | test | system | conditions | inhibition [%] |
| --- | --- | --- | --- | --- |
| PIK3CA | – | – | – | -13.1 |
| STLK5 (mouse) | probe labelling, inhibitor, KiNativ ActivX ADP probe | mouse brain lysate | activation loop peptide | -14.2 |
| PIP4K2C mouse | KiNativ profiling | mouse brain lysate | ATP site, together with: ATP acyl phosphate probe | 5.9 |
| YANK3 | – | – | – | -3.6 |

Series 4 — organism: Sarcocystis neurona; observed: parasite growth; concentration: 10 µM; time: 96 h; notes: first screen
| SMILES | inhibition [%] |
| --- | --- |
| CC(=O)OCC(=O)[C@@]1(O)CC[C@H]2[C@@H]3C[C@H](C)C4=CC(=O)C=C[C@]4(C)[C@H]3[C@@H](O)C[C@@]21C | 3.3 |
| COc1ccc(C2CNC(=O)C2)cc1OC1CCCC1 (stereo not shown) | 1.3 |
| CCCC1O[C@@H]2C[C@H]3[C@@H]4CCC5=CC(=O)C=C[C@]5(C)[C@H]4[C@@H](O)C[C@]3(C)[C@]2(C(=O)CO)O1 (stereo partly shown) | -26 |
| CNNCc1ccc(C(=O)NC(C)C)cc1 | 0.379 |
| CC(=O)S[C@@H]1CC2=CC(=O)CC[C@]2(C)[C@H]2CC[C@@]3(C)[C@@H](CC[C@@]34CCC(=O)O4)[C@H]12 | 6.1 |
| CN(C)CCCN1c2ccccc2CCc2ccc(Cl)cc21 | 18.6 |

Series 5 — method: competition with immobilised ligand; concentration: 1 µM
Structure (SMILES): CC(=O)C1=C(C)N(c2cccc(C(F)(F)F)c2)C(=O)N[C@@H]1c1ccc(C#N)nc1
| target | observed | remaining binding [%] |
| --- | --- | --- |
| MAPK7 (Homo sapiens, UniProt Q13164) | cell-free assay | 100 |
| MAPK14 (Homo sapiens, UniProt Q16539) | cell-free assay | 100 |
| CDK3 (Homo sapiens, UniProt Q00526) | cell-free assay | 100 |
| PRKD2 (Homo sapiens, UniProt Q9BZL6) | cell-free assay | 98.8 |
| PRKAA2 (Homo sapiens, UniProt P54646) | cell-free assay | 80.4 |
| PIK3CG (Homo sapiens, UniProt P48736) | cell-free assay | 100 |
| SIK3 (Homo sapiens, UniProt Q9Y2K2) | cell-free assay | 100 |
| PHKG2 (Homo sapiens, UniProt P15735) | cell-free assay | 80.8 |
| WNK2 (Homo sapiens, UniProt Q9Y3S1) | cell-free assay | 94 |
| Tyrosine-protein kinase ABL1, phosphorylated (ABL1, Homo sapiens, UniProt P00519, E255K) | binding | 75 |
| Tyrosine-protein kinase JAK2, JH1 (JAK2, Homo sapiens, UniProt O60674) | cell-free assay | 87.1 |
| PIM2 (Homo sapiens, UniProt Q9P1W9) | cell-free assay | 98.2 |
| MAP4K4 (Homo sapiens, UniProt O95819) | cell-free assay | 99.3 |
| RIOK2 (Homo sapiens, UniProt Q9BVS4) | cell-free assay | 98 |
| GRK3 (Homo sapiens, UniProt P35626) | cell-free assay | 92.6 |

A few entries again (series 3):
| target | test | system | conditions | inhibition [%] |
| --- | --- | --- | --- | --- |
| STLK5 (mouse) | probe labelling, inhibitor, KiNativ ActivX ADP probe | mouse brain lysate | activation loop peptide | -14.2 |
| PIP4K2C mouse | KiNativ profiling | mouse brain lysate | ATP site, together with: ATP acyl phosphate probe | 5.9 |
| YANK3 | – | – | – | -3.6 |
